# Measurements pooled from the literature.
# A part holds a random share of what one study measured. Positions count from the first letter of the parent shown.

# Study 1 — method: competition protein-binding microarray; molecule type: double-stranded DNA, one strand shown; medium: in vitro; concentration: 2 µM; added: Cbf1 competitor, 0.05 µM; direction: higher = stronger binding; constant ends, left off below: … GTCTTGATTCGCTTGACGCTGCTG
# Target: Phosphate system positive regulatory protein PHO4, full length, GST-tagged (PHO4, Saccharomyces cerevisiae, UniProt P07270, residues 1-312)
# Setting: whole 60-bp probe, lowest competitor level
# Residues (chain): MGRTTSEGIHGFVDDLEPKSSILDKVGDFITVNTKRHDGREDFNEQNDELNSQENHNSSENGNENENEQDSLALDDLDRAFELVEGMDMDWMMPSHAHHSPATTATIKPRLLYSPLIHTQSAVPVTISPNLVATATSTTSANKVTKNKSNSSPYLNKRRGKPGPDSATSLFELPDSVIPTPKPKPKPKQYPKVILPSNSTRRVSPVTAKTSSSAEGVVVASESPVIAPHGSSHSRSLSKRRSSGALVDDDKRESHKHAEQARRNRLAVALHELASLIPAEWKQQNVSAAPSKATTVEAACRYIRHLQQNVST
Sequence,fluorescence intensity
CGGGGTTAAGTTTGTACCGTGGGTGGCTTGCAGCAG,5990 a.u.
TAATATTTGTAAAAGCACGTGATGGTGCCTTTTTCT,17200 a.u.
AAGGGCCAATTCGGCCATGTGTGAGTAAGATCGCAA,7520 a.u.
CGGGGTTAAGTTTGACAGGTGGGTGGCTTGCAGCAG,6620 a.u.
AAATTACTAAGTTGTACTGTGGGTGACGCCGTATGA,4170 a.u.
CGGGGTTAAGTTTGTCACCCCACTTGCTTGCAGCAG,4540 a.u.
TATTCAGCCAGTTTGTATATATGAGAATTAAACGTT,4190 a.u.
GGGTAGCCCTCTCAACACGTGGAGGGTAACCTTTTC,15200 a.u.
GGATACTTGCTTGTTGACGTGCTTTTAGGCATCCTT,4730 a.u.
GAACCAAGACCGTCAAGCGTGCTTTTAAGGCTTTGA,6540 a.u.
CGGGGTTAAGTTTGCTGTGTGGGTGGCTTGCAGCAG,5380 a.u.
ACAACCGTCTATGATGACGTGTTGACATTATCAAAC,6050 a.u.
TTACTTTTTCAAAGACTCGTGCTTTCTATTGCATAA,11700 a.u.
ATAAGAACGCTACCAAACGTGGTAACTTGTCCGTCA,11000 a.u.
CTGGCCCACTTCATGGGCGTGCTAATCAAGAAGTAC,7940 a.u.
GCCCACTTTTTTTCAAATGTGTGAGACACCCATACC,5310 a.u.
GGAGACGAAGGATGGGGCGTGCTGTCATTAGAGGTA,10300 a.u.
CGGGGTTAAGTTTTTCACGTGTCCTGCTTGCAGCAG,12000 a.u.
GTCTTGTCTCATTGGACTGTGGGTGTCCCCACTTCA,4100 a.u.

# Study 2 — target: CCND1, cyclin fold, Cln2 fusion (human); method: yeast growth competition, sequencing; medium: yeast; setting: weak parent motif; relative to: not given; direction: higher = stronger binding
# Starting sequence: GMNC docking peptide (human); KNAKRNLSSEFAN
Substitution,normalised enrichment score
A12V,0.153
S8A,0.548
A3N,0.369
R5H,0.162
S9A,0.742
S9L,0.87
L7K,0.169
S8F,0.646
A3Y,0.148
E10D,0.0182
N2G,0.897
A3Q,0.313
S8I,0.45
S9W,0.59
N6H,-0.00665
L7R,-0.00616

# Study 3 — method: RNA Bind-n-Seq; molecule type: RNA; medium: in vitro; concentration: 365 nM; relative to: no-protein control; direction: higher = stronger binding
# Target: RNA binding protein fox-1 homolog 2, RRM domain, GST-SBP tag (RBFOX2, Homo sapiens, UniProt O43251-10, residues 100-194)
# Setting: natural RNA segment, single round, ends assumed
# Constant ends, left off below: GGGAGUUCUACAGUCCGACGAUC … UGGAAUUCUCGGGUGCCAA
Sequence,RBNS enrichment (R)
UGGUCACUCCUUCGGUGAGACCUCACUGUUCCUGGCUCUUCAUCCUCUUCAAAAAAUUUGCAUGUCUGCUGUGAAUUUUCAUCUAGUUCCCCAAUCGAUGCUCUCAGGGU,1.39
CUUUUGAACAAUUUUAAUUUUUUGCCUCAUAAAUUUUGUGAAUGCUAUUCAUUAUAGGGCUUGUAUAUAUAAUCUAAAAUGUCAGCAAGGCAUCGGAGAUGGGUUAACAU,1.31
CGCCCUGUGGUGCCCACCUCCAACCCUCCAGUCUCCUGGUGUUCAUCUGGGCAUGUCUGCACAAGCAAUGCAACGCUGGGCCACUGCUGCCCGUCUGCCUCCCCGGCACG,1.18
CAGUCUGGUCUCAAACUCCCGGCCUCAAGCAAUCCUCCCACUGGCCUCACAAUGUUGGGAUUACAGGUAUAAGCCACUGCACACGGCCUUACUAUGCUAUCAAUUCCAUA,0.549
GCAGAUGCACAUGUUGGAGGAGAGAGCCUUGGGAGCCACUGCCACUCCAGUCCUGCCACCACCCUGUCUUCCUCUGCAAGUGCUCAGGGAAAUGGCCUUCCCGCCGGAGG,0.431
AGAUACAUCCUGAUCUACAGGCGUGAGAGACACAGAGAGAGAUAGACACUGGGCCUUAUAUGCUCUUUUAAAACUUCAAGGUCCACCCCCAGUAAUGCACUUCCUUCAAA,0.719
UCCUCCAUUCUGUGAACUUCCCUGGUGAGAGAAGAAGGAGGACUGGGCAUGAACUGAGGAUUGUAUUGAAGACUGUGGUUUUUAAGCCUCGCUGUAAAGAAAGGCCAUGC,1.03
AUUGUUGAGCAUAGCUGGCUUGCCCAAUCUCACAGUGGGUAGGAAGGAGAUGAAGUUUGGAAUCCAGUUUCUUUGGCUCAGAGCUGCUUUCAGUACCACUUGUUUUUAGC,0.37

# Other studies, line by line
Substance,target,assay,test system,conditions,how to read,measurement,result
"PhoQ, residues 284 288 289 292 302 303 SSCLAV","PhoP, residues 12 14 15 18 19 LYHSL (Escherichia coli, UniProt P23836)","Sort-seq, item: YFP reporter",E. coli,"PhoQ-PhoP variant library, added: 10 µM Mg2+","relative to: high Mg2+ state, higher = stronger signaling",fold induction,5.3

# A few entries again (study 2):
Substitution,normalised enrichment score
A3Y,0.148
R5H,0.162
S8F,0.646
N2G,0.897
S9L,0.87
